Published values collected from several papers.
Lines come from different studies, so protocols differ. Numbers after ± are the reported error.

C[C@@]12OC(=O)[C@]1([C@@H](O)[C@@H]1C=CCCC1)NC(=O)[C@@H]2CCCl — EC50 (Jurkat; DNA fragmentation, propidium iodide flow cytometry; 24 h, about 50% fragmentation): 25 nM
CC(C)[C@@H]1NC(=O)[C@@H]2Cc3ccc(cc3)O[C@H]3C[C@H](NC3=O)C(=O)N3CCC[C@H]3C(=O)N[C@@H](Cc3ccc(O)cc3)C(=O)N[C@@H](C(=O)N[C@@H](C(C)C)C(=O)N2)c2cc(ccc2O)C[C@@H](C(=O)O)NC1=O — EC50 (H9c2; cell viability, protective, Alamar blue; 12 h, added: doxorubicin 8.6 µM): 1460 nM
CC(=O)c1cc2c(cc1C)C(C)(C)C(C)CC2(C)C (stereo not shown) — EC50 (SH-SY5Y; cell growth or viability, resazurin): 98000 nM
F[P-](F)(F)(F)(F)F.F[P-](F)(F)(F)(F)F.[Ru+2].c1ccc(-c2ccccn2)nc1.c1ccc(-c2ccccn2)nc1.c1csc(-c2ccc(-c3cc4cccnc4c4ncccc34)s2)c1 — EC50 (SK-MEL-28; cell viability, resazurin; 16 h drug-to-light interval, added: visible light 100 J/cm2): 214 ± 2 nM
CC(C)(C)c1cc(C=C(C#N)C#N)cc(Br)c1O — EC50 (A2780; cell proliferation, resazurin; 72 h): 21300 nM
CC[P](CC)(CC)=[Au][S][C@@H]1O[C@H](COC(C)=O)[C@@H](OC(C)=O)[C@H](OC(C)=O)[C@H]1OC(C)=O — EC50 (BT-474; cell growth or viability, resazurin; 72 h): 3940 nM
COc1cc(Nc2ncc(F)c(Nc3ccc4c(n3)NC(=O)C(C)(C)O4)n2)cc(OC)c1OC — EC50 (HUVEC; VEGF-dependent tube outgrowth): 21.4 ± 3.4 nM
CCC[C@@H](C)[C@H](O)[C@H](C)[C@H]1OC(=O)[C@H]([C@@H](C)O)NC(=O)[C@H]([C@@H](C)CC)OC(=O)[C@H](C)[C@H](O)[C@H]([C@@H](C)CC)NC(=O)[C@@]2(C)CSC(=N2)[C@@]2(C)CSC(=N2)c2csc(n2)C[C@H](OC)[C@@H]1C — EC50 (mouse neocortical neurons; spontaneous Ca2+ oscillations, inhibitor, fluo-3 Ca2+ imaging): 79.8 nM
CC[C@H](C)[C@H](NC(=O)[C@H](C)NC(=O)CNC(=O)[C@H](Cc1ccccc1)NC(=O)[C@H](CC(N)=O)NC(=O)[C@H](CC(N)=O)NC(=O)[C@H](CO)NC(=O)[C@H](CO)NC(=O)[C@H](Cc1c[nH]cn1)NC(=O)[C@@H](NC(=O)[C@H](CC(C)C)NC(=O)[C@H](Cc1ccccc1)NC(=O)[C@H](CC(N)=O)NC(=O)[C@H](C)NC(=O)[C@H](CC(C)C)NC(=O)[C@H](CCCNC(=N)N)NC(=O)[C@H](CCC(N)=O)NC(=O)[C@@H](NC(=O)[C@H](C)NC(=O)[C@@H]1CSSC[C@H](NC(=O)[C@@H](N)CCCCN)C(=O)N[C@@H](CC(N)=O)C(=O)N[C@@H]([C@@H](C)O)C(=O)N[C@@H](C)C(=O)N[C@@H]([C@@H](C)O)C(=O)N1)[C@@H](C)O)C(C)C)C(=O)N[C@@H](CC(C)C)C(=O)N[C@@H](CO)C(=O)N[C@@H](CO)C(=O)N[C@H](C(=O)N[C@@H](CC(N)=O)C(=O)N[C@H](C(=O)NCC(=O)N[C@@H](CO)C(=O)N[C@@H](CC(N)=O)C(=O)N[C@H](C(=O)N[C@@H](Cc1ccc(O)cc1)C(N)=O)[C@@H](C)O)C(C)C)[C@@H](C)O — EC50 (INS1; cell growth or viability, fluorescence; 24 h): 27000 nM
OO — EC50 (primary pig RPE cells; cell death, ATP content; added: TNF-alpha 10 ng/mL): 125000 nM
CC(C)C[C@H](NC(=O)[C@@H](N)CC(C)C)C(=O)N[C@@H](CO)C(=O)N[C@H](C(=O)NCC(=O)NCC(=O)O)C(C)C — EC50 (Melan-A specific CD8 T cell clone; TNF-alpha production; cross-presentation, Melan-A A27L epitope, added: mature macrophage-derived dendritic cells): 150 nM
CO[C@@H]1C(=O)O[C@H](C)[C@H](C)/C=C(\C)C[C@H](C)C(=O)N[C@@H](C)C(=O)N(C)[C@H](Cc2c[nH]c3ccccc23)C(=O)N[C@H]1c1ccc(O)cc1 — EC50 (human foreskin fibroblast HFF; cytotoxicity, viable cells; 72 h): 109 ± 7 nM
corticotropin-releasing factor (human/rat) — EC50 (rat hippocampal pyramidal neurons; CREB phosphorylation, agonist, refers to: pCREB Ser133; 15 min): 8 nM

For quick reference, copied from above:
COc1cc(Nc2ncc(F)c(Nc3ccc4c(n3)NC(=O)C(C)(C)O4)n2)cc(OC)c1OC — EC50 (HUVEC; VEGF-dependent tube outgrowth): 21.4 ± 3.4 nM
